Measurements pooled from the literature.
A part holds a random share of what one study measured. Positions count from the first letter of the parent shown.

Sample 1
Target: Interferon regulatory factor 7, full length, phosphomimetic (IRF7, Homo sapiens, UniProt Q92985, residues 1-503, S471D/S472D/S475D/S476D/S477D/S483D/S484D/S487D)
Technique: protein-binding microarray
Molecule type: double-stranded DNA, one strand shown
Medium: in vitro
Tested at: 2200 nM top
Notes: 60-bp whole probe
Added: salmon DNA 0.4 mg/ml
Baseline: random background probes
Direction: higher = stronger binding
Measurement: fitted relative affinity
Constant ends, left off below: GCCTAGCAC … GTCTTGATTCGCTTGACGCTGCTG
Construct (chain): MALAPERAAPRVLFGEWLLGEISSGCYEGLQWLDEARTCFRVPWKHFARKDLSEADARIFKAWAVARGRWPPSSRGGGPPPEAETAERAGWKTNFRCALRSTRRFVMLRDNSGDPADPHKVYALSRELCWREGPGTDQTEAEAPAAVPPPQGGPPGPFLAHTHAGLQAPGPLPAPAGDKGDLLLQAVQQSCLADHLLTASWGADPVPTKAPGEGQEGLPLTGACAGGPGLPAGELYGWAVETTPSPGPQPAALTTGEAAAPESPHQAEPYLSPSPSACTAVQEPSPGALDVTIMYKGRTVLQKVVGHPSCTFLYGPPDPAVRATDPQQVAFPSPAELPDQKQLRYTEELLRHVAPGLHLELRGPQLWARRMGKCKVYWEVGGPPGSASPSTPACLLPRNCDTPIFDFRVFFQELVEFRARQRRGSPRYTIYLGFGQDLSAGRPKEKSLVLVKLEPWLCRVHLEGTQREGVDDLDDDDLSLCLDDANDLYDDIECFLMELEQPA
CACTGACACCGATTTCATCACGTGCTA: 0.913 z-score
TTAGGAATGCTTCTCCTTTAGTGCTAG: 0.352 z-score
GACGGTATCCTTATCCTAACGTGCTAG: 1.2 z-score
GACGATATCGGGACTGGTGACGTGCTA: -0.231 z-score
TTAGGACTGGACTTTCCGTTAGTGCTA: 1.46 z-score
TCACCTCTAACTTCCCAACTGTGCTAG: 1.71 z-score

Sample 2
Target: Fragile X messenger ribonucleoprotein 1, C-terminal low-complexity region (Fmr1, Mus musculus, UniProt P35922)
Technique: RNA Bind-n-Seq
Molecule type: RNA
Medium: in vitro
Tested at: 200 nM
Notes: whole 134-nt RNA, ends assumed
Added: 150 mM LiCl
Baseline: input library
Direction: higher = stronger binding
Measurement: log2 enrichment
Library: 7-deaza-guanosine replaces G
Constant ends, left off below: GGGAGUUCUACAGUCCGACGAUC … UGGAAUUCUCGGGUGUCAAGG
CUCAAGUCCUGUGCUACACAUCGUAUGUACCGAAUCGGGAGGGGAGGGGAGGGAAAGUAUUAUGUUACGCCGUUCGGAUCUGCACUUCCA: -0.536
CCUCAAGUCCUGUGCUACACAUCGUAUGUACCGAAUCGGGGAGGGGAGGGAGGAAAGUAUUAUGUUACGCCGUUCGGAUCUGCACUUCCA: -1.23
UGCGGGCCGAGAAUCGGGAGCUGGGCAAACGCGUACAGGCACUGCAGGAGGAGAGUCGCUACCUACGGGCAGUCUUAGCCAACGAGACUG: -0.185
GGUGGAAUCCAUAGAGCUCCCCAUGGACAACAAGACCAAUAAGAGGCGUGGGUUCUGCUUUAUUACCUUUAAGGAAGAAGAACCAGUGAA: 0.404
UCAAGUCCUGUGCUACACAUCGUAUGUACCGAAUCGGGCCGGGGCCGGGCCGGGGAAAGUAUUAUGUUACGCCGUUCGGAUCUGCACUUC: 0.458
UUAGGGCCAAUCUUCGUCAAUAUGGUUUAGAGAAGUAUUACCUUGAUGUCCUGGUUUCAGAUGCAUCUAAACCUUCCUGGAGGAAGGGCA: -1.45

Sample 3
Target: ABI1, truncated, D143A, DHFR fusion (Arabidopsis thaliana)
Technique: DHFR PCA, deep sequencing
Medium: yeast
Notes: methotrexate growth selection, single substitutions
Added: (+)-ABA 0.032 µM
Baseline: wild-type fitted maximum
Direction: higher = stronger binding
Measurement: relative binding score
Starting sequence: PYL1, truncated, DHFR fusion (Arabidopsis thaliana); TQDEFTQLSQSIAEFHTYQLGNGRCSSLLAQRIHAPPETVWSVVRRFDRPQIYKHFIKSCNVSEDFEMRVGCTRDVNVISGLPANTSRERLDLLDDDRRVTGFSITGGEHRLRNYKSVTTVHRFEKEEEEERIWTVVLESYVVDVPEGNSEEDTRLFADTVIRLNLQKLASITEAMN; partner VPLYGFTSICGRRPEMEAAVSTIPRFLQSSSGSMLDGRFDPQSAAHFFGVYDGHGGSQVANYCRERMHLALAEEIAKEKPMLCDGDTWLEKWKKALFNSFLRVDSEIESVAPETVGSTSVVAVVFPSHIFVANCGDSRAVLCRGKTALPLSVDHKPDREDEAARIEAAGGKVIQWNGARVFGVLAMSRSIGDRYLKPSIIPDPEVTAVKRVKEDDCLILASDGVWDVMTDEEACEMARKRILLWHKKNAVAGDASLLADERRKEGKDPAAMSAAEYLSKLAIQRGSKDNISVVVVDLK
S9E: 38.1%
W134Y: 75.4%
T173Y: -9.27%

Single results of other studies
PhoQ, residues 284 288 289 292 302 303 SQSLSM  fold induction (PhoP, residues 12 14 15 18 19 NNFVT (Escherichia coli, UniProt P23836); Sort-seq, measured: YFP reporter; E. coli; PhoQ-PhoP variant library, added: 10 µM Mg2+; baseline: high Mg2+ state, higher = stronger signaling): 11.8

Some of these lines once more (sample 1):
TTAGGACTGGACTTTCCGTTAGTGCTA: 1.46 z-score
